Measurements from different studies.
Each line is one published result; not all experiments were run side by side.
Matrix: plasma
Route: intravenous

SMILES	host	dose	notes	Vd [L/kg]
Cc1cc2c(cc1O)C=C1C=CC(=O)C(C)(C)[C@H]1CC2	male Sprague-Dawley rat	2 mg/kg		3.4
CCC1(CC)CC(=O)N(C2c3cc(C(=O)NC4c5ccccc5CC4O)ccc3OC2(C)COC)C(=N)N1 (stereo not drawn)	male Wistar rat			9.7
COc1cc(OC)c2c(=O)cc(-c3cc(C)c(OCCCN4CCN(C)CC4)c(C)c3)oc2c1	male Sprague-Dawley rat	10 mg/kg	single dose	11.4
CC(C)(C)C(=O)Nc1ccc2[nH]c(CN3CCC(N(CCCN4CCOCC4)CC4OC(n5cnc6c(N)ncnc65)C(O)C4O)CC3)nc2c1 (stereo not drawn)	male Sprague-Dawley rat	20 mg/kg		14.9
CC1(C)C(NC(=O)C(=NOC2(C(=O)O)CC2)c2csc(N)n2)C(=O)N1OS(=O)(=O)O (stereo not drawn)	rat	10 mg/kg	single dose	0.27
O=c1c(-c2ccc(Cl)c(CN3CCOCC3)c2)coc2cc(O)ccc12	male Sprague-Dawley rat	2 mg/kg		12.7
Cc1cccc(Cn2ncc3c4cc(F)c(CN(C)C)cc4n(C)c3c2=O)n1	Sprague-Dawley rat	5 mg/kg		2.09
CNC(=O)C1CCCN(C(=O)C2CC3CCC2N3C(=O)[C@@H]2C[C@@H](O)CN2C(=O)NCc2cccc(Cl)c2F)C1 (mixture of isomers)	rat	2.5 mg/kg		0.86
CN1CCC[C@@H]1C(=O)N[C@@H](Cc1ccc(-c2ccccc2)cc1)B(O)O	male Sprague-Dawley rat	1 mg/kg		2.1
C[C@@H](CO)NC(=O)c1cc(-c2ccc(Cl)cc2)nn(-c2cnn(C)c2)c1=O	male Wistar rat			1.5
CCC(CC)n1c(Cc2cccs2)nc2cc(C(=O)N[C@@H](CC(=O)O)c3ccccc3)ccc21	male Sprague-Dawley rat	1 mg/kg		3.69
C/C(N)=N/C(=N\S(=O)(=O)c1ccc(C(F)(F)F)cc1)N1C[C@H](c2ccccc2)C(c2ccc(Cl)cc2)=N1	male Sprague-Dawley rat	3 mg/kg		3.7

For quick reference, copied from above:
SMILES	host	dose	notes	Vd [L/kg]
C[C@@H](CO)NC(=O)c1cc(-c2ccc(Cl)cc2)nn(-c2cnn(C)c2)c1=O	male Wistar rat			1.5
CCC(CC)n1c(Cc2cccs2)nc2cc(C(=O)N[C@@H](CC(=O)O)c3ccccc3)ccc21	male Sprague-Dawley rat	1 mg/kg		3.69
